Results pooled from the literature.
Compare with care: the assays were run in different laboratories.
Organism: Enterococcus faecium

`CN1C(=O)[C@@H]2NC(=O)[C@@H]3NC(=O)[C@@H](c4ccc(O)cc4)NC(=O)[C@H](NC(=O)C(N)c4ccc(O)cc4)Cc4c[nH]c5cc(ccc45)-c4cc3cc(c4O)Oc3ccc(cc3)C[C@H]1C(=O)N[C@@H](C(=O)NCCC[N+](C)(C)C)c1ccc(O)c(c1)Oc1ccc2cc1` (some centres unmarked) gave an MIC of 4 µg/mL (brain heart infusion medium).
With `c1cc2c(s1)CCOC21CCN(Cc2ccc3c(c2)OCCO3)CC1` the MIC was 64 µM (microbial growth, broth dilution; X7501).
`CCCCCCCCCCCCCC(=O)N[C@H](CCN)C(=O)N[C@@H]1C(=O)N[C@@H](CCN)C(=O)N[C@@H](CC(C)C)C(=O)N[C@@H](CCN)C(=O)N[C@H](Cc2ccccc2)C(=O)N[C@@H](CC(C)C)C(=O)N[C@@H](CCN)C(=O)N[C@H](Cc2ccc(O)cc2)C(=O)N[C@@H](C(C)C)C(=O)N[C@@H](CC(=O)O)C(=O)O[C@@H]1C` has an MIC of 2 µg/mL (broth microdilution; BNCC 186301).
`CC1=CC2(C)C(=C(C)C3C4CC(C)CC(C)C4C4Oc5ccc(cc5)CC5(O)NC(=O)C(=C(O)C2C43)C5Nc2ncnc3c2ncn3C2OC(CO)C(O)C2O)C1C` (centres unmarked) gave an MIC of 6.3 µM (microbial growth, broth dilution; ATCC700221; drug-resistant strain).
`COc1ccc2nc(C)cc(OCC(=O)Nc3ccccc3OC)c2c1` has an MIC of over 64 µM (microbial growth, broth dilution; X7501).
For `CN(C)CCCNC(=O)[C@@H]1NC(=O)[C@@H]2Cc3ccc(cc3)Oc3cc4cc(c3O)-c3ccc5c(c[nH]c5c3)C[C@@H](NC(=O)C(NC(=O)CCCCCN)c3ccc(O)cc3)C(=O)N[C@H](c3ccc(O)cc3)C(=O)N[C@H]4C(=O)N[C@@H](C(=O)N2C)c2ccc(cc2)Oc2cc1ccc2O` (some centres unmarked), the MIC was 0.5 to 1 µg/mL (WCC 0534, VRE-A).
The MIC of `CC[C@H](C)c1occ2c(=O)c(C(=O)O)c(O)cc-2c1C` is reported as 50 µM (microbial growth, broth dilution; ATCC35667).
The MIC of `CN1C(=O)[C@@H]2NC(=O)[C@@H]3NC(=O)[C@@H](c4ccc(O)cc4)NC(=O)[C@H](NC(=O)C(NCc4cccc(F)c4F)c4ccc(O)cc4)Cc4c[nH]c5cc(ccc45)-c4cc3cc(c4O)Oc3ccc(cc3)C[C@H]1C(=O)N[C@@H](C(=O)O)c1ccc(O)c(c1)Oc1ccc2cc1` (some centres unmarked) is reported as 16 µg/mL (brain heart infusion medium).
`CC1CCN(CCCN2/C(=C/c3cc(/C=C/c4c[nH]c5ccccc45)[n+](C)c4ccccc34)Sc3ccccc32)CC1` has an MIC of 8 µg/mL (microbial growth, broth dilution; ATCC700221; drug-resistant strain).
For `CNCCNC(=O)[C@@H]1NC(=O)[C@@H]2Cc3ccc(cc3)Oc3cc4cc(c3O)-c3ccc5c(c[nH]c5c3)C[C@@H](NC(=O)C(N)c3ccc(O)cc3)C(=O)N[C@H](c3ccc(O)cc3)C(=O)N[C@H]4C(=O)N[C@@H](C(=O)N2C)c2ccc(cc2)Oc2cc1ccc2O` (some centres unmarked), the MIC was 1 to 2 µg/mL (brain heart infusion medium).
`Cc1cccc(-c2nc(Nc3ccncn3)c3c(C)csc3n2)n1` has an MIC of 8 µM (microbial growth, broth dilution; X7501).
The MIC of `CNC(CC(C)C)C(=O)NC1C(=O)NC(CC(N)=O)C(=O)NC2C(=O)NC3C(=O)NC(C(=O)NC(C(=O)O)c4cc(O)cc(O)c4-c4cc3ccc4O)C(O)c3ccc(c(Cl)c3)Oc3cc2cc(c3OC2OC(CO)C(O)C(O)C2OC2CC(C)(NCc3ccc(-c4ccc(Cl)cc4)cc3)C(O)C(C)O2)Oc2ccc(cc2Cl)C1O` (centres unmarked) is reported as 5 µg/mL (ATCC BAA-2317 VanA; added: +LTA 100 µg/mL).
`CC1=C[C@@H](C)[C@H]2[C@@H]3C(=O)C(Cl)(Cl)C(=O)[C@H](C)C(=O)O[C@@H](C)/C=C/C=C\[C@@H](C)[C@@H]3C=C[C@@H]2C1` gave an MIC of 0.025 µg/mL (microbial growth, broth dilution; VRE; drug-resistant strain).
`COc1ccc(CCNc2cc(-c3ccccc3)nc3ncnn23)cc1` has an MIC of 64 µM (microbial growth, broth dilution; X7501).
For `CC(C)CCCCCCCCCCCCc1cc(O)cc(O)c1`, the MIC was 32 µg/mL (microbial growth, broth dilution; drug-resistant strain).
With `CN1C(=O)[C@@H]2NC(=O)[C@@H]3NC(=O)[C@@H](c4ccc(O)cc4)NC(=O)[C@H](NC(=O)C(N)c4ccc(O)cc4)Cc4c[nH]c5cc(ccc45)-c4cc3cc(c4O)Oc3ccc(cc3)C[C@H]1C(=O)N[C@@H](C(=O)O)c1ccc(O)c(c1)Oc1ccc2cc1` (some centres unmarked) the MIC was 4 to 8 µg/mL (WCC 0496, VRE-A).
For `C=C(NC(=O)C(=C)NC(=O)c1csc(C2=NC3c4csc(n4)C4NC(=O)c5csc(n5)C(C(C)(O)C(C)O)NC(=O)C5CSC(=N5)C(=CC)NC(=O)C(C(C)O)NC(=O)c5csc(n5)C3(CC2)NC(=O)C(C)NC(=O)C(=C)NC(=O)C(C(C)CC)NC2C=Cc3c(C(C)O)cc(nc3C2O)C(=O)OC4C)n1)C(N)=O` (centres unmarked), the MIC was over 5 µg/mL (broth microdilution; ATCC 12952 VRE; 18 h, 37 °C).

Some of these lines once more:
For `CN(C)CCCNC(=O)[C@@H]1NC(=O)[C@@H]2Cc3ccc(cc3)Oc3cc4cc(c3O)-c3ccc5c(c[nH]c5c3)C[C@@H](NC(=O)C(NC(=O)CCCCCN)c3ccc(O)cc3)C(=O)N[C@H](c3ccc(O)cc3)C(=O)N[C@H]4C(=O)N[C@@H](C(=O)N2C)c2ccc(cc2)Oc2cc1ccc2O` (some centres unmarked), the MIC was 0.5 to 1 µg/mL (WCC 0534, VRE-A).
The MIC of `CC[C@H](C)c1occ2c(=O)c(C(=O)O)c(O)cc-2c1C` is reported as 50 µM (microbial growth, broth dilution; ATCC35667).
The MIC of `CN1C(=O)[C@@H]2NC(=O)[C@@H]3NC(=O)[C@@H](c4ccc(O)cc4)NC(=O)[C@H](NC(=O)C(NCc4cccc(F)c4F)c4ccc(O)cc4)Cc4c[nH]c5cc(ccc45)-c4cc3cc(c4O)Oc3ccc(cc3)C[C@H]1C(=O)N[C@@H](C(=O)O)c1ccc(O)c(c1)Oc1ccc2cc1` (some centres unmarked) is reported as 16 µg/mL (brain heart infusion medium).
